Results of several laboratories.
Numbered parts are unrelated; each lists some results of a single study. Substitutions count along the parent as printed.

Block 1 — method: DHFR PCA, deep sequencing; medium: yeast; together with: (+)-ABA 200 µM; baseline: wild-type fitted maximum; reading: higher = stronger binding
Target: ABI1, truncated, D143A, DHFR fusion (Arabidopsis thaliana)
Setting: methotrexate growth selection, single substitutions
Starting sequence: PYL1, truncated, DHFR fusion (Arabidopsis thaliana); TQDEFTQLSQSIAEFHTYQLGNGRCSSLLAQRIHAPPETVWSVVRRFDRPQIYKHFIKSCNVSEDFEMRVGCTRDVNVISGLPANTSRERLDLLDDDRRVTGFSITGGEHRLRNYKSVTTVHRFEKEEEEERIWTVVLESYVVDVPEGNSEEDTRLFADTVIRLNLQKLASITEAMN
Change | relative binding score
F5I | 95.2%
G71E | 49.2%
D65I | 84.6%
T6F | 96.6%
I133F | 99.6%
Y53S | 41.7%
A35P | -5.62%
Q2M | 110%
G108T | 42.2%
V78F | 86.6%
S63N | 103%

Block 2 — target: CCNF, cyclin fold, Cln2 fusion (human); method: yeast growth competition, sequencing; medium: yeast; setting: strong parent motif; baseline: not given; reading: higher = stronger binding
Starting sequence: CDC25A docking peptide (human); PPHRRRLLFACSP; partner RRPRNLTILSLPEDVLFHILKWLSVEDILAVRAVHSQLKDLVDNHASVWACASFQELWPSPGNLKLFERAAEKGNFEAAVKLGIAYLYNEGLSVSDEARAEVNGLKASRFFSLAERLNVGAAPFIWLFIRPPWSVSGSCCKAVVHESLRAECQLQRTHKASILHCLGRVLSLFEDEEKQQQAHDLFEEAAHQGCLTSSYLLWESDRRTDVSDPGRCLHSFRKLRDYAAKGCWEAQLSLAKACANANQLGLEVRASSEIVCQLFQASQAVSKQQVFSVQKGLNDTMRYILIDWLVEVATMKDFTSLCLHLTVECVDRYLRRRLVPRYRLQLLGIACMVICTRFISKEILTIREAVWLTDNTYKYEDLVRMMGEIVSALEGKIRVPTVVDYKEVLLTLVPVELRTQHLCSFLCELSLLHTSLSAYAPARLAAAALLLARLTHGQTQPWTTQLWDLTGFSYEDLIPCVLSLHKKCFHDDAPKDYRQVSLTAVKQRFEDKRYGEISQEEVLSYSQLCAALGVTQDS
Change | normalised enrichment score
H3A | 9.23
P2V | 6.74
P1Y | 8.41
S12W | 6.05
S12Q | 6.59
R4T | 4.58
S12M | 7.06
L7I | 3.28
L7R | 1.92
F9P | 0.956
C11G | 7.49
A10F | 7.63
P2F | 6.69
P1I | 7.64
L8N | 6.8
C11T | 7.92
R5A | 1.52
P1W | 7.72
R4E | 1.47
C11W | 6.56
A10Y | 6.97
P2H | 6.69
H3D | 2.76
L8G | 2.51
F9V | 1.8

Block 3 — method: RNA Bind-n-Seq; molecule type: RNA; medium: in vitro; concentration: 365 nM; baseline: no-protein control; reading: higher = stronger binding
Target: RNA binding protein fox-1 homolog 2, RRM domain, GST-SBP tag (RBFOX2, Homo sapiens, UniProt O43251-10, residues 100-194)
Setting: natural RNA segment, single round, ends assumed
Residues (chain): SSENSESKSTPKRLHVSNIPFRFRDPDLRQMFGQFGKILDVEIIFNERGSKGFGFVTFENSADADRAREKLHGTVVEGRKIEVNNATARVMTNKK
Sequence | RBNS enrichment (R)
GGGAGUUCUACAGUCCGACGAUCAUAUGAGCCUAGGGUUUCCCCAACACGUGCGUGCAUAUGAAACCACAUCAUGAUUCCCGACGUGAGUUAGAUGAGGGAGAGUUUGUGUAACUCCACACCCAGGAGGGUAAUGGAAUUCUCGGGUGCCAA | 0.231
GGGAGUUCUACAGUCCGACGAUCGUGGUUUCAAAAUCUCUGGCACCAUCUUGACCUCUUGGCUCUCUCUGCACUUUGCCCCCUGUCUCAAAAAUGUCCCUCAUGUCCAUUUCCUGUCCAGGAGACUCAUGAGGUGGAAUUCUCGGGUGCCAA | 0.372
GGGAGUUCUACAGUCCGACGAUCGAGACCCGCAGGCGGGGCUUAGCCACCCCUCAAACCCAGGGCCCCCUGGCACCUGGCUCUGGCCGUGUUUUCUGGCCAGAGGCCCCCACUUUCCUAACUCGUGCUCCCUUUGGAAUUCUCGGGUGCCAA | 0.365
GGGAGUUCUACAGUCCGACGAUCGCACUGUCAUCAUCACCCAUAAUGCCUGCAAAGGCCUAGCGGUCCUCAGCCCUGCACAUGAGAGAGGCACAGAGUCUGUCAGCACAAACAGGAAGCAGCUGGGCUUUUAAUGGAAUUCUCGGGUGCCAA | 0.859
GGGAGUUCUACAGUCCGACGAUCUCCUCCUAGCUUUCCCCACAGAGAAUGUUAGACCAGUAUGGCUUCUUGCCUUGAUCCUGUUGUGGCAGUGUCUGUUCCUGCCCCAGGUGUGCUAUUCACGCAGGUUUAUUUGGAAUUCUCGGGUGCCAA | 0.651
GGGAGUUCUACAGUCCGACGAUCAAUUGAGACAUUUCUAGCAUUACUUAAUGACUUGCAUUGUGGUUUUUCUGCAAGCAACUUUAAUGACUUUUUUUAUACCACAUGGUCUCCCAGUUUCUAGAUGAAUGCAAUGGAAUUCUCGGGUGCCAA | 2.31
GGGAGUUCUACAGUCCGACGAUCCAAACGGAAGAAUUAGAGACGUCCUACAAGGCAGAUUCAGACCAAUAUUUCUUCGUAUAGUUUAUUCUUUCUUUUAUAUAUUAUCUAAAUAUAUGUAUAUGUUGUGUAAUUGGAAUUCUCGGGUGCCAA | 0.692
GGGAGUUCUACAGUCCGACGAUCUGAUCCCCCUCUCCCAUUUAUUCCCUUGAAGGUGCCCUUGUAUUCCUAAUCUGAUCUAAGAAGCUGCUGUAGAGUCAGAAGUAGCUUCUGUGUGAAACUUAUAUUUGUAUUGGAAUUCUCGGGUGCCAA | 2.04

Block 4 — method: RNA Bind-n-Seq; molecule type: RNA; medium: in vitro; concentration: 200 nM; setting: whole 134-nt RNA, ends assumed; together with: 150 mM KCl; baseline: input library; reading: higher = stronger binding
Target: Ras GTPase-activating protein-binding protein 1, full length (G3BP1, Homo sapiens, UniProt Q13283)
Sequence of UniProt Q13283 (whole entry, looked up): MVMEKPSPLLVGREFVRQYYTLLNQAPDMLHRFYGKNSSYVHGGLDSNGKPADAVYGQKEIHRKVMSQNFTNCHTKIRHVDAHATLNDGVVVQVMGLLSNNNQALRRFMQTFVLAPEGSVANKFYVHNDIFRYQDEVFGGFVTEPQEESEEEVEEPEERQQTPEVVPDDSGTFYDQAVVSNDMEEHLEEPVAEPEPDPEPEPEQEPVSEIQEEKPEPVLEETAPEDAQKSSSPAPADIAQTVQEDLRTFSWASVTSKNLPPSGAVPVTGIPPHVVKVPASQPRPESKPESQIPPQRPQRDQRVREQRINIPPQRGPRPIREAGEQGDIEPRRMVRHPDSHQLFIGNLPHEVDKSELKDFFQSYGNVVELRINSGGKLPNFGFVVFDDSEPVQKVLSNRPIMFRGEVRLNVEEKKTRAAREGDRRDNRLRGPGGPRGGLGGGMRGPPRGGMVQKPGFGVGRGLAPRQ
Sequence | log2 enrichment
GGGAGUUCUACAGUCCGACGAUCACCAUGCAGGUGGGCAUCUUUGGGAAGUGGGACAAGGGGGGGAUAGGGAGGGGGGUAACACUUUGGGAACAGGUGGUCCCAGGUCGUUUCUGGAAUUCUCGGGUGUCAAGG | 1.08
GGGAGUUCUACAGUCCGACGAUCCACAGACAACACGCACCCACACAGACACAGAGAAAAGGGGUUGGGAUGGGGACAGGGUGCACAGCAGGGCGGGGUAGGACCCCAGCCCCUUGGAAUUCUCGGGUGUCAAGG | 1.88
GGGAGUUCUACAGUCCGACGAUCAGUCCUGUGCUACACAUCGUAUGUACCGAAUCGGGGUUUUGGGGUUUUGGGUUUUGGGAAAGUAUUAUGUUACGCCGUUCGGAUCUGCACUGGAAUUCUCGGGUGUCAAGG | -0.0324
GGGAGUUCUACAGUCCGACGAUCAGUCCUGUGCUACACAUCGUAUGUACCGAAUCGGGGUGGGGUUUUUUUGGGGUGGGGAAAGUAUUAUGUUACGCCGUUCGGAUCUGCACUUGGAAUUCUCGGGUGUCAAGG | 0.639
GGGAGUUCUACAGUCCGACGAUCGGGGACGGCAAAACAGAACAGAAAGGCGGAGAUAAAAAGAGGGGUGUUAAAAGACCACGAGAAGAUCAUGGCCGUGGAUAUUUUGAGUACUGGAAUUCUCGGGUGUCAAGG | 0.532
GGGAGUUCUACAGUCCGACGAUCCCUGUGCUACACAUCGUAUGUACCGAAUCGGGGUUUUUUUGGGUUUUUUUGGUUUUUUUGGAAAGUAUUAUGUUACGCCGUUCGGAUCUGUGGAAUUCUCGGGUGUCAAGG | -0.629
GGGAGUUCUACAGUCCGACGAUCUCCUGUGCUACACAUCGUAUGUACCGAAUCGGGGUUUUUUGGGUUUUUUGGUUUUUUGGGAAAGUAUUAUGUUACGCCGUUCGGAUCUGCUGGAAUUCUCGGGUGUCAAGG | -0.405
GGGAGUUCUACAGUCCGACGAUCCUGUGCUACACAUCGUAUGUACCGAAUCGGGUUUUUUUGGGAAAAAAAGGGAAAAAAAGGGAAAGUAUUAUGUUACGCCGUUCGGAUCUGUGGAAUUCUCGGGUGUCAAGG | -1.38
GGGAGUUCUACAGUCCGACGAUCCACAGACAACACGCACCCACACAGACACAGAGGGAAGGGGUUGGGAUGGGGACAGGGUGCACAAAAGGGCGGGGUAGGACCCCAGCCCCUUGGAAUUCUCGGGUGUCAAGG | 1.87

For quick reference, copied from above (block 2):
Change | normalised enrichment score
C11T | 7.92
S12W | 6.05
A10F | 7.63
F9P | 0.956
